{"data": "Published values of several laboratories", "FAP": "Prolyl endopeptidase FAP (FAP, Homo sapiens, UniProt Q12884)", "B1": "vapC A76S (Salmonella typhimurium, UniProt Q8ZM86); chain MLKFMLDTNTCIFTIKNKPEHIRERFNLNTSRMCISSITLMELIYGAEKSLAPERNLAVVEGFISRLEVLDYDTQSAIHTGQIRAELARKGTPVGPYDQMIAGHAGSRGLVVVTNNLREFERIPGIRIEDWC", "note": "Numbers after ± are the reported error.", "sequence of UniProt Q12884 (whole entry, looked up)": "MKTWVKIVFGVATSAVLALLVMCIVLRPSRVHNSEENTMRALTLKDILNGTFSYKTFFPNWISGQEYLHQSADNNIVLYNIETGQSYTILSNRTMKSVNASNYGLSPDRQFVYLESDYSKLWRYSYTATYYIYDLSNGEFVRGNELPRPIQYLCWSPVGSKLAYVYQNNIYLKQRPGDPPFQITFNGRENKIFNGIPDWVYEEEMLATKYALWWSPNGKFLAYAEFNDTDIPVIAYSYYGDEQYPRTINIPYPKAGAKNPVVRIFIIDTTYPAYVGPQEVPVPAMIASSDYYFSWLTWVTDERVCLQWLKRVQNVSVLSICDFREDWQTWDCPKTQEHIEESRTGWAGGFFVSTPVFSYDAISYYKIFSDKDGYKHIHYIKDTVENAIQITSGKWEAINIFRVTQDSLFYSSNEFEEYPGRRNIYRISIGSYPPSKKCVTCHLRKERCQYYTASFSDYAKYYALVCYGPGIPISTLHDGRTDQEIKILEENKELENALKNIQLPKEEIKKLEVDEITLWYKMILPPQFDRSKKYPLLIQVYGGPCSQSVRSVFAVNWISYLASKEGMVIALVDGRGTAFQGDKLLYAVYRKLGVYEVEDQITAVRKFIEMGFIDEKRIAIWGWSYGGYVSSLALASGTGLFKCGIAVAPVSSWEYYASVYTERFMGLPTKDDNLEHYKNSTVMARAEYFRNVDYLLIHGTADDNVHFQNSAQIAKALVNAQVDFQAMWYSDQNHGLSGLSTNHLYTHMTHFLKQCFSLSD", "sequence of UniProt O15354 (whole entry, looked up)": "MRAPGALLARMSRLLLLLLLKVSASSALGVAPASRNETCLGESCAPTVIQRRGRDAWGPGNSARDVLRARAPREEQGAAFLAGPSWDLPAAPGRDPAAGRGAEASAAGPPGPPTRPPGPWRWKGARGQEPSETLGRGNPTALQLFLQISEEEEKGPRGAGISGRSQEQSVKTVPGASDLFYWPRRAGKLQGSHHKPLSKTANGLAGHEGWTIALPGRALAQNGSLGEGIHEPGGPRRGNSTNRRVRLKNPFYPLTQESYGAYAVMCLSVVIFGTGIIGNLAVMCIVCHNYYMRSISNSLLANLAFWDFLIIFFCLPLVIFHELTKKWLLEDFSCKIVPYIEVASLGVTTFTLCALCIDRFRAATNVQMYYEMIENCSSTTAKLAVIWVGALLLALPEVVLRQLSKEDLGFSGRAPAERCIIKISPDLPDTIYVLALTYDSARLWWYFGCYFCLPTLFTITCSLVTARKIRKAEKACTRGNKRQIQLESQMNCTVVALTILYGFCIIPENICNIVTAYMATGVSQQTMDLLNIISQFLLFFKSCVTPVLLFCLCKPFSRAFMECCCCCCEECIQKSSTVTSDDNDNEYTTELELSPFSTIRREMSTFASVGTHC", "sequence of UniProt P97321 (whole entry, looked up)": "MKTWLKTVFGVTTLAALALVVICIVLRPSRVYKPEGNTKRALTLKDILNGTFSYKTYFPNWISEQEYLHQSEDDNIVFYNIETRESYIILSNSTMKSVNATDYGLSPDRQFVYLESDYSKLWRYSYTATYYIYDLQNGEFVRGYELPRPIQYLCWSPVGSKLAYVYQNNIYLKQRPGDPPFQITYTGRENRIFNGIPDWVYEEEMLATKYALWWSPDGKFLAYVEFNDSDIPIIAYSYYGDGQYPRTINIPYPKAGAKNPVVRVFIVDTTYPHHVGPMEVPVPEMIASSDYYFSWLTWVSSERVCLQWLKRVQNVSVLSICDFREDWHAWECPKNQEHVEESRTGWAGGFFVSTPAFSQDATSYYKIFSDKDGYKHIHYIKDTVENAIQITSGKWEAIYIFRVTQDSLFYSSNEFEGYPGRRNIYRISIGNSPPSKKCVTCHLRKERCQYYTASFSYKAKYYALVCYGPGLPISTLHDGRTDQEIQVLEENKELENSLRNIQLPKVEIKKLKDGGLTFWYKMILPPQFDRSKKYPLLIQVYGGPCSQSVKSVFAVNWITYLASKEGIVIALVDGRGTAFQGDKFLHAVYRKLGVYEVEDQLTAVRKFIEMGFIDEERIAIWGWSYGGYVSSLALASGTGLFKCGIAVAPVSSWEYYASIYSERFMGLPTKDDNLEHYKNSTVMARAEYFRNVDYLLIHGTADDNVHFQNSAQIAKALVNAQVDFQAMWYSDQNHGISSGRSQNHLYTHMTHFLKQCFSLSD"}
{"Molecule": "pertussis toxin", "target or system": "GPR37 (Homo sapiens, UniProt O15354)", "assay": "antagonist", "system": "HEK293 cells overexpressing GPR37", "conditions": "concentration not given, pretreatment, added: osteocalcin", "endpoint": "ERK phosphorylation", "value": "inhibited"}
{"Molecule": "COc1cccc2c1C(=O)c1c(O)c3c(c(O)c1C2=O)C[C@@](O)(C(=O)CO)C[C@@H]3O[C@H]1C[C@H](NC(=O)[C@@H]2CCCN2C(=O)CNC(=O)[C@H](CC(C)C)NC(=O)[C@H](C)NC(=O)CP(=O)(O)O)[C@H](O)[C@H](C)O1", "system": "mouse, E0771 tumour-bearing, kidney", "conditions": "intravenous, 92 µmol/kg", "endpoint": "Tmax", "value": "5 min"}
{"Molecule": "CC[C@H]1CN2CCc3cc(OC)c(OC)cc3[C@@H]2C[C@@H]1C[C@@H]1c2cc(OC)c(OC)cc2CCN1C(=O)[C@@H]1CCCN1C(=O)CNC(=O)[C@H](C)NC(=O)[C@@H]1CCCN1C(=O)CNC(=O)[C@H](CO)NC(=O)[C@H](C)NC(C)=O", "target or system": "FAP", "assay": "substrate, HPLC-MS", "conditions": "250 µM, 24 h, pH 7.8, 37 °C, 2.5% DMSO", "endpoint": "hydrolysis to emetine", "value": "0%"}
{"Molecule": "COc1cccc2c1C(=O)c1c(O)c3c(c(O)c1C2=O)C[C@@](O)(C(=O)CO)C[C@@H]3O[C@H]1C[C@H](NC(=O)[C@H](CC(C)C)NC(=O)[C@H](C)NC(=O)[C@H](CC(C)C)NC(=O)CCNC(=O)CCC(=O)O)[C@H](O)[C@H](C)O1", "system": "mouse, E0771 tumour-bearing, tumor", "conditions": "intravenous, 92 µmol/kg", "endpoint": "Tmax", "value": "5 min"}
{"Molecule": "N=C(N)NCCC[C@@H]1NC(=O)[C@H](CCCCNC(=O)[C@H](CC(=O)O)NC(=O)[C@H](CC(=O)O)NC(=O)[C@H](CC(=O)O)NC(=O)CC[C@H](NC(=O)CCOCCOCCOCCOCCNC(=O)c2ccc(NN)nc2)C(=O)N[C@@H](CC(=O)O)C(=O)N[C@@H](CC(=O)O)C(=O)N[C@@H](CC(=O)O)C(=O)NCCCC[C@@H]2NC(=O)[C@@H](Cc3ccccc3)NC(=O)[C@H](CC(=O)O)NC(=O)CNC(=O)[C@H](CCCNC(=N)N)NC2=O)NC(=O)[C@@H](Cc2ccccc2)NC(=O)[C@H](CC(=O)O)NC(=O)CNC1=O [technetium-99m labelled]", "system": "U-87 MG xenograft athymic nude mice, muscle", "conditions": "intravenous, 60 min, added: RGD2 14 mg/kg co-injected", "endpoint": "tissue uptake", "value": "0.18 ± 0.06 %ID/g"}
{"Molecule": "C=Cc1c(C)c2cc3nc(c4c5[nH]c(cc6nc(cc1[nH]2)C(C)=C6CC)c(C)c5C(=O)C4)[C@@H](CCC(=O)N[C@H](C(=O)N[C@@H](CO)C(=O)NCC(=O)N1CCC[C@H]1C(=O)N[C@@H](CC(N)=O)C(=O)N[C@@H](CCC(N)=O)C(=O)N[C@@H](CCC(=O)O)C(=O)N[C@@H](CCC(N)=O)C(=O)N[C@@H](CCCCNC(=O)CCCN(C)c1ccc(N=Nc2ccc4nc5ccc(N(CC)CC)cc5[n+](-c5ccccc5)c4c2)cc1)C(N)=O)[C@@H](C)O)[C@@H]3C", "target or system": "Fap (Mus musculus, UniProt P97321)", "assay": "substrate", "conditions": "0.1 to 6 µM, pH 7.37, 37 °C", "endpoint": "Vmax", "value": "36 ± 2 pmol/min"}
{"Molecule": "melittin", "assay": "membrane partitioning, ITC enthalpy vs temperature", "system": "POPC/POPG LUVs 90:10%", "conditions": "concentration not given, 25 to 60 °C", "endpoint": "heat capacity change", "value": "-0.34 kcal/mol/K"}
{"Molecule": "CCSSC[C@H](NC(=O)[C@H](CC(=O)O)NC(=O)[C@H](Cc1ccccc1)NC(=O)[C@H](CCC(=O)O)NC(=O)[C@@H](NC(C)=O)[C@@H](C)CC)C(=O)NCC(=O)N[C@@H](Cc1cn(CCCNC(=O)CCCCC[N+]2=C(/C=C/C=C/C=C3/N(C)c4ccc(S(=O)(=O)[O-])cc4C3(C)C)C(C)(C)c3cc(S(=O)(=O)O)ccc32)nn1)C(=O)NCc1ccc(C(=O)NCCCOc2cnc(C#N)nc2)cc1", "target or system": "CD19-28ζ CAR T cells", "conditions": "0, 2.5 and 5 µM, overnight, added: A20-Luc target cells", "endpoint": "cytotoxicity", "value": "no effect"}
{"Molecule": "CC[C@H]1CN2CCc3cc(OC)c(OC)cc3[C@@H]2C[C@@H]1C[C@@H]1c2cc(OC)c(OC)cc2CCN1C(=O)OCc1ccc(NC(=O)[C@H](C)NC(=O)[C@@H]2CCCN2C(=O)CNC(=O)[C@H](C)NC(=O)[C@@H]2CCCN2C(=O)CNC(=O)[C@H](CO)NC(=O)[C@H](C)NC(C)=O)cc1", "target or system": "FAP", "assay": "substrate, HPLC-MS", "conditions": "250 µM, 24 h, pH 7.8, 37 °C, 2.5% DMSO", "endpoint": "hydrolysis to emetine", "value": "0%"}
{"Molecule": "CC(=O)N(O)CCCCCNC(=O)CCC(=O)N(O)CCCCCNC(=O)CCC(=O)N(O)CCCCCNC(=S)Nc1ccc(NC(=S)NCCOCCOCCOCCOCCC(=O)N[C@@H](CCC(=O)NCCOCCOCCOCCOCCC(=O)NCCCC[C@@H]2NC(=O)[C@@H](Cc3ccccc3)NC(=O)[C@H](CC(=O)O)NC(=O)CNC(=O)[C@H](CCCNC(=N)N)NC2=O)C(=O)NCCOCCOCCOCCOCCC(=O)NCCCC[C@@H]2NC(=O)[C@@H](Cc3ccccc3)NC(=O)[C@H](CC(=O)O)NC(=O)CNC(=O)[C@H](CCCNC(=N)N)NC2=O)cc1 [zirconium-89 labelled]", "system": "athymic nude mice female tumour-bearing, liver", "conditions": "intravenous, dose not given, 4 h, added: unlabelled c(RGDfK) 300 µg", "endpoint": "tissue uptake", "value": "18.8 ± 2.21 %ID/g"}
{"Molecule": "N=C(N)NCCC[C@@H]1NC(=O)[C@H](CCCCNC(=O)CNC(=O)CNC(=O)CNC(=O)CC[C@H](NC(=O)CCOCCOCCOCCOCCNC(=O)c2ccc(NN)nc2)C(=O)NCC(=O)NCC(=O)NCC(=O)NCCCC[C@@H]2NC(=O)[C@@H](Cc3ccccc3)NC(=O)[C@H](CC(=O)O)NC(=O)CNC(=O)[C@H](CCCNC(=N)N)NC2=O)NC(=O)[C@@H](Cc2ccccc2)NC(=O)[C@H](CC(=O)O)NC(=O)CNC1=O [technetium-99m labelled]", "assay": "γ-counting", "system": "female athymic nude mice, U-87 MG xenograft, brain", "conditions": "intravenous, 0.5 h", "endpoint": "tissue uptake", "value": "0.2 ± 0.08 %ID/g"}
{"Molecule": "B1 (vapC A76S)", "target or system": "itself", "assay": "lacZ reporter", "scale": "baseline: wild type, higher = more transcription", "endpoint": "vapBC transcription", "value": "1.9 fold"}
{"Molecule": "OXA-48 (Klebsiella pneumoniae, UniProt Q6XEC0)", "target or system": "C[C@@H](O)[C@H]1C(=O)N2C(C(=O)O)=C(S[C@@H]3CN[C@H](CNS(N)(=O)=O)C3)[C@H](C)[C@H]12", "assay": "steady-state kinetics", "conditions": "pH 7.2, 30 °C", "endpoint": "kcat/Km", "value": "16000 M⁻¹ s⁻¹"}
{"note": "For quick reference, copied from above:"}
{"Molecule": "C=Cc1c(C)c2cc3nc(c4c5[nH]c(cc6nc(cc1[nH]2)C(C)=C6CC)c(C)c5C(=O)C4)[C@@H](CCC(=O)N[C@H](C(=O)N[C@@H](CO)C(=O)NCC(=O)N1CCC[C@H]1C(=O)N[C@@H](CC(N)=O)C(=O)N[C@@H](CCC(N)=O)C(=O)N[C@@H](CCC(=O)O)C(=O)N[C@@H](CCC(N)=O)C(=O)N[C@@H](CCCCNC(=O)CCCN(C)c1ccc(N=Nc2ccc4nc5ccc(N(CC)CC)cc5[n+](-c5ccccc5)c4c2)cc1)C(N)=O)[C@@H](C)O)[C@@H]3C", "target or system": "Fap (Mus musculus, UniProt P97321)", "assay": "substrate", "conditions": "0.1 to 6 µM, pH 7.37, 37 °C", "endpoint": "Vmax", "value": "36 ± 2 pmol/min"}
{"Molecule": "COc1cccc2c1C(=O)c1c(O)c3c(c(O)c1C2=O)C[C@@](O)(C(=O)CO)C[C@@H]3O[C@H]1C[C@H](NC(=O)[C@@H]2CCCN2C(=O)CNC(=O)[C@H](CC(C)C)NC(=O)[C@H](C)NC(=O)CP(=O)(O)O)[C@H](O)[C@H](C)O1", "system": "mouse, E0771 tumour-bearing, kidney", "conditions": "intravenous, 92 µmol/kg", "endpoint": "Tmax", "value": "5 min"}
